Published values from different studies.
A part holds a random share of what one study measured. Substitutions count along the parent as printed.

Set 1
Target: CCND2, cyclin fold, Cln2 fusion (human)
Technique: yeast growth competition, sequencing
Matrix: yeast
Notes: weak parent motif
Reference: not given
Reading: higher = stronger binding
Starting sequence: PKMYT1 docking peptide (human); SFEPRNLLSLFED
| Change | normalised enrichment score |
| --- | --- |
| L7F | 0.0939 |
| F11W | 0.525 |
| N6G | 0.361 |
| E12M | -0.071 |
| N6W | 0.339 |
| L8F | 0.116 |
| F2H | 0.193 |
| P4E | 0.207 |
| R5W | 0.109 |
| S9L | 0.216 |
| F11I | 0.0909 |
| S1H | -0.0871 |
| E12T | -0.234 |
| N6C | 0.222 |
| L10V | -0.0985 |
| L8E | -2.11 |
| S1P | 0.407 |
| R5K F11L | -0.143 |
| L8Y | 0.122 |
| L10S | -0.343 |
| S1R | -0.289 |
| L10E | 0.0916 |
| E3C | -0.241 |
| L10W | 0.283 |
| E12L | -0.412 |

Set 2
Target: Histone acetyltransferase KAT6A, winged helix 2, GST fusion (KAT6A, Homo sapiens, UniProt Q92794, residues 85-181)
Technique: protein binding microarray
Molecule type: double-stranded DNA, one strand shown
Matrix: in vitro
Tested at: not given
Notes: 8-mer, flanks averaged, mean of 2 arrays, mostly near background
Reference: not given
Reading: higher = stronger binding
Residues (chain): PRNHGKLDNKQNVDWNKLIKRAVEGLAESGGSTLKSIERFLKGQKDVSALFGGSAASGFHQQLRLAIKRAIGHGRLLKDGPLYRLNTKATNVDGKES
| Sequence | E-score |
| --- | --- |
| ACCATGAA | 0.0676 |
| GAGGGCTA | -0.0518 |
| GCTTTGCC | 0.0265 |
| AGCGCCCA | -0.0872 |
| ACGTTATG | -0.204 |
| CATGTCAG | -0.0597 |
| TGCATCCA | 0.019 |
| AGAGCCCT | 0.0296 |
| AGTCAAGG | -0.114 |
| GTAGGTTA | -0.0555 |
| GTGCGCTA | -0.102 |
| CAAACTTC | 0.0456 |
| ATATACTG | -0.00364 |
| ACATAATG | -0.0367 |
| GCTTCGCA | 0.0494 |
| TCGTGCCA | -0.0466 |

Set 3
Target: ABI1, truncated, D143A, DHFR fusion (Arabidopsis thaliana)
Technique: DHFR PCA, deep sequencing
Matrix: yeast
Notes: methotrexate growth selection, single substitutions
Added: (+)-ABA 0.0091 µM
Reference: wild-type fitted maximum
Reading: higher = stronger binding
Starting sequence: PYL1, truncated, DHFR fusion (Arabidopsis thaliana); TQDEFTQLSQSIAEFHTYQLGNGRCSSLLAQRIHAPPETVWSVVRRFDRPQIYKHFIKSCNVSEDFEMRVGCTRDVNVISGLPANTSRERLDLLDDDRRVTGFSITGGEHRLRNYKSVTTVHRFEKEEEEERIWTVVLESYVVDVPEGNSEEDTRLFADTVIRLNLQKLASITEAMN
| Change | relative binding score |
| --- | --- |
| D3Y | 46.2% |
| D48C | 0.422% |
| D97R | 16.9% |
| Q10C | 9.42% |
| C72E | 14.4% |
| M68I | 38.4% |
| E4Y | 15.3% |
| V40F | -5.26% |
| F15P | 1.14% |
| V44W | 3.98% |
| S104R | 3.22% |
| A13I | 0.879% |
| R123K | 56.8% |
| R98T | 3.66% |
| I33G | 3.38% |
| R46P | -1.18% |
| E127C | 32.2% |

Set 4
Target: PABPC1L2, full length, GST fusion (mouse, UniProt A0ABA7IW68)
Technique: RNAcompete
Molecule type: RNA
Matrix: in vitro
Tested at: 20 nM
Notes: 7-mer, probes averaged, single round
Reference: mean of 7-mers
Reading: higher = stronger binding
Target sequence (chain): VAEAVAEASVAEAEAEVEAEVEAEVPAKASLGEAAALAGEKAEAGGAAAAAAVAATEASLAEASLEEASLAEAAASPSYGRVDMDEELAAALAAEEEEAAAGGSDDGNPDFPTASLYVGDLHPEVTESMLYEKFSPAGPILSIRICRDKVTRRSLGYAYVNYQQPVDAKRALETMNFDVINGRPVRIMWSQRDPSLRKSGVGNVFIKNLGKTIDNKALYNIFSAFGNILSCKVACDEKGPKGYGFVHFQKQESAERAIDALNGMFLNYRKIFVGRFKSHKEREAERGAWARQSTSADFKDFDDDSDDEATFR
| Sequence | 7-mer Z-score |
| --- | --- |
| ACUUAAC | -0.0645 |
| AGAACCG | -0.13 |
| GCGUGGA | 0.43 |
| AAGACCU | 0.175 |
| GUUGGAC | -0.0971 |
| GCGUUGU | -0.113 |
| GAUUGCC | -0.284 |
| AGUGUUU | -0.411 |
| GGAAUCU | -0.222 |
| CAGGAGC | 0.0932 |
| CCCUUAG | -0.349 |
| CUAAUCU | -0.267 |
| CCAAGCU | -0.195 |
| AUCGAAC | -0.0863 |
| GUUUAAA | 0.32 |
| AUGACAA | 0.276 |

Set 5
Target: Ras GTPase-activating protein-binding protein 1, C-terminal RGG region (G3BP1, Homo sapiens, UniProt Q13283)
UniProt Q13283, sequence (whole entry, looked up): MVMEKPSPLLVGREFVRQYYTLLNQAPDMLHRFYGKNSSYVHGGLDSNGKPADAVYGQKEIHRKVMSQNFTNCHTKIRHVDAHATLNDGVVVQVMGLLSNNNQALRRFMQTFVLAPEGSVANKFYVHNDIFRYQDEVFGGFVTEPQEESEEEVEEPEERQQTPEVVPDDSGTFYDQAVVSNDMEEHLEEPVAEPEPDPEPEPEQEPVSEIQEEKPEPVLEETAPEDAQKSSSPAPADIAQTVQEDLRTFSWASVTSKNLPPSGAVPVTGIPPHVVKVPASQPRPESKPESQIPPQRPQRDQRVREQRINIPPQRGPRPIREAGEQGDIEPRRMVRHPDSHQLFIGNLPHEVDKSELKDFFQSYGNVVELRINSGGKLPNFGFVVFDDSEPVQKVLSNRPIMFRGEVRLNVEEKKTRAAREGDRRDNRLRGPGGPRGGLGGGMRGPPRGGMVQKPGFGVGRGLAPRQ
Technique: RNA Bind-n-Seq
Molecule type: RNA
Matrix: in vitro
Tested at: 1 µM
Notes: whole 134-nt RNA, ends assumed
Added: 150 mM KCl
Reference: input library
Reading: higher = stronger binding
Shared flanks, not repeated: GGGAGUUCUACAGUCCGACGAUC … UGGAAUUCUCGGGUGUCAAGG
| Sequence | log2 enrichment |
| --- | --- |
| AGUCCUGUGCUACACAUCGUAUGUACCGAAUCGGGGUUUUGGGUUUUGGUUUUGGGGAAAGUAUUAUGUUACGCCGUUCGGAUCUGCACU | -0.572 |
| UGUCAGUAUCAUACAUAACAGAGGAAUGCCUGAAGAAGCUGGACACAAAGCAGCAGACCAACACCCUGCUCAACCUGGUGUGGAGGGACU | -0.557 |
| CUCAAGUCCUGUGCUACACAUCGUAUGUACCGAAUCGGGUUUGGGAGGGAGGGAAAGUAUUAUGUUACGCCGUUCGGAUCUGCACUUCCA | 2.14 |
| GUCCUGUGCUACACAUCGUAUGUACCGAAUCGGGGAAAAAGGGAAAAAGGGAAAAAGGGAAAGUAUUAUGUUACGCCGUUCGGAUCUGCA | -0.554 |
| CACAGACAACACGCACCCACACAGACACAGAGGGAAGGGGUUGGGAUGGGGACAGGGUGCACAGCAGGGCGGGGUAGGACCCCAGCCAAA | -0.409 |
| AAGUCCUGUGCUACACAUCGUAUGUACCGAAUCGGGUUUUUGGGUUUGGGUUUGGGAAAGUAUUAUGUUACGCCGUUCGGAUCUGCACUU | 1.37 |
| CUCAAGUCCUGUGCUACACAUCGUAUGUACCGAAUCGGGUGGGAGGGAAAGGGAAAGUAUUAUGUUACGCCGUUCGGAUCUGCACUUCCA | 1.65 |
| CUCAAGUCCUGUGCUACACAUCGUAUGUACCGAAUCGGCCGGGCCGGCCGGGGAAAGUAUUAUGUUACGCCGUUCGGAUCUGCACUUCCA | -1.1 |
| UAACUUUAGAGGAGGAUCUGAUGGAUAUGGCAGUGGACGUGGAUUUGGGGAUGGCUAUAAUGGGUAUGGAGGAGGACCUGGAGGGGGCAA | -0.596 |

Single results of other studies
| Molecule | target | assay | system | conditions | scale | quantity | result |
| --- | --- | --- | --- | --- | --- | --- | --- |
| PhoQ, residues 284 288 289 292 302 303 SCCLKL | PhoP, residues 12 14 15 18 19 VQALL (Escherichia coli, UniProt P23836) | Sort-seq, item: YFP reporter | E. coli | PhoQ-PhoP variant library, added: 10 µM Mg2+ | reference: high Mg2+ state, higher = stronger signaling | fold induction | 3.71 |

A few entries again (set 3):
| Change | relative binding score |
| --- | --- |
| M68I | 38.4% |
| E4Y | 15.3% |
| V40F | -5.26% |
| F15P | 1.14% |
| V44W | 3.98% |
| S104R | 3.22% |
